Measurements collected from several papers.
Lines come from different studies, so protocols differ. “And” joins repeats or separate records; there may be more than shown. ± gives the spread as reported.
PIK3CA: Phosphatidylinositol 4,5-bisphosphate 3-kinase catalytic subunit alpha isoform (PIK3CA, Homo sapiens, UniProt P42336)
UniProt P42336, sequence (whole entry, looked up): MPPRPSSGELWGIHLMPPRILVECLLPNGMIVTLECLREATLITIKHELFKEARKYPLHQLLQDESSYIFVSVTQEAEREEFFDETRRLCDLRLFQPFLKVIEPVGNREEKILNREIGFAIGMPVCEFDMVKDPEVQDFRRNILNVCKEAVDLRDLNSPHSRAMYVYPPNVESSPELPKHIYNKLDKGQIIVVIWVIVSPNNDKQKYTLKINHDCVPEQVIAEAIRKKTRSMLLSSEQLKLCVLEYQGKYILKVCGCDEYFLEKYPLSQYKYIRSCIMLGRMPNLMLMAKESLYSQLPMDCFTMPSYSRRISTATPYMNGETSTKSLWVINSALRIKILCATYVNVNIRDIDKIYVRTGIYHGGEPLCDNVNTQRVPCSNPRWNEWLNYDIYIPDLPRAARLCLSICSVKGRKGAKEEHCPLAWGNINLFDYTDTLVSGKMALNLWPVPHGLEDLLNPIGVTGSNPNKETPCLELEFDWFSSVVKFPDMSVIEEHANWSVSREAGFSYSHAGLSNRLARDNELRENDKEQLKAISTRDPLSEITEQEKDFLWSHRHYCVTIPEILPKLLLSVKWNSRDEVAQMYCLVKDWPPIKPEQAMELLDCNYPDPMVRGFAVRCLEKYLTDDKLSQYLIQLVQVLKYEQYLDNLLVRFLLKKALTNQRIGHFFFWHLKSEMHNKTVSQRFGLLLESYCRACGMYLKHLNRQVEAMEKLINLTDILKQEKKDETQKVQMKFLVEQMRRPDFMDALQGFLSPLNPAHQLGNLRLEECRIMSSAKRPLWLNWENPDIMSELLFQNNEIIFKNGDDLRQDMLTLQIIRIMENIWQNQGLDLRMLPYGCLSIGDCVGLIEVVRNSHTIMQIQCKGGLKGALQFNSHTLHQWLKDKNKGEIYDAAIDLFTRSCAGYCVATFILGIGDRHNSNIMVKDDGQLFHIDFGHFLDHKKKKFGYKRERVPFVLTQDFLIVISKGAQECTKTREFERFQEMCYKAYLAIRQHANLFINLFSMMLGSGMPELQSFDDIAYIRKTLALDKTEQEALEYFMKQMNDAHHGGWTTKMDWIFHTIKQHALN
Gria2/Glutamate receptor 3: Gria2/Glutamate receptor 3 (Rattus norvegicus, UniProt P19491+P19492)
UniProt P19492, sequence (whole entry, looked up): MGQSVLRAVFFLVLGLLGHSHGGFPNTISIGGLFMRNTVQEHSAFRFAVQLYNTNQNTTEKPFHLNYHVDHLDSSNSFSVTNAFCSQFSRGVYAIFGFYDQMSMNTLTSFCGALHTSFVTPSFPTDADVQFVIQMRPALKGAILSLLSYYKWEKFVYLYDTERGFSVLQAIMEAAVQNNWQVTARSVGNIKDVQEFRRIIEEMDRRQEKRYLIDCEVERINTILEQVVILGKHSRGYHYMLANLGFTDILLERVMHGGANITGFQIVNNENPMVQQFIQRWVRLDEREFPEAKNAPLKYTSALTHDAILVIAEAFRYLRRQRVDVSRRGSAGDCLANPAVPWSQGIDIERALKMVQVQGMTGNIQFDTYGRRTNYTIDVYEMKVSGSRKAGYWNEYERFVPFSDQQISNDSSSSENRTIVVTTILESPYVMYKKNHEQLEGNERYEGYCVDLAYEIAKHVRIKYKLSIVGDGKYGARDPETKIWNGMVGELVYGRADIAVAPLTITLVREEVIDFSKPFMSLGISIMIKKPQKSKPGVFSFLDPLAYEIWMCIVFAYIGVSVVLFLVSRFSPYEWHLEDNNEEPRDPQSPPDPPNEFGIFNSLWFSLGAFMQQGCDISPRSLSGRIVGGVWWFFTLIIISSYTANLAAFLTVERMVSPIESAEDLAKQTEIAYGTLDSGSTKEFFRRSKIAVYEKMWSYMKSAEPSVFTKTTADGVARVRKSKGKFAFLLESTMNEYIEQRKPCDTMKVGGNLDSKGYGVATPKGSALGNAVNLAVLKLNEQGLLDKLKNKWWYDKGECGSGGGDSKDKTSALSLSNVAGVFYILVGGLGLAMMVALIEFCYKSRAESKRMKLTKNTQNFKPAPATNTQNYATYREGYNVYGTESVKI
UniProt P19491, sequence (whole entry, looked up): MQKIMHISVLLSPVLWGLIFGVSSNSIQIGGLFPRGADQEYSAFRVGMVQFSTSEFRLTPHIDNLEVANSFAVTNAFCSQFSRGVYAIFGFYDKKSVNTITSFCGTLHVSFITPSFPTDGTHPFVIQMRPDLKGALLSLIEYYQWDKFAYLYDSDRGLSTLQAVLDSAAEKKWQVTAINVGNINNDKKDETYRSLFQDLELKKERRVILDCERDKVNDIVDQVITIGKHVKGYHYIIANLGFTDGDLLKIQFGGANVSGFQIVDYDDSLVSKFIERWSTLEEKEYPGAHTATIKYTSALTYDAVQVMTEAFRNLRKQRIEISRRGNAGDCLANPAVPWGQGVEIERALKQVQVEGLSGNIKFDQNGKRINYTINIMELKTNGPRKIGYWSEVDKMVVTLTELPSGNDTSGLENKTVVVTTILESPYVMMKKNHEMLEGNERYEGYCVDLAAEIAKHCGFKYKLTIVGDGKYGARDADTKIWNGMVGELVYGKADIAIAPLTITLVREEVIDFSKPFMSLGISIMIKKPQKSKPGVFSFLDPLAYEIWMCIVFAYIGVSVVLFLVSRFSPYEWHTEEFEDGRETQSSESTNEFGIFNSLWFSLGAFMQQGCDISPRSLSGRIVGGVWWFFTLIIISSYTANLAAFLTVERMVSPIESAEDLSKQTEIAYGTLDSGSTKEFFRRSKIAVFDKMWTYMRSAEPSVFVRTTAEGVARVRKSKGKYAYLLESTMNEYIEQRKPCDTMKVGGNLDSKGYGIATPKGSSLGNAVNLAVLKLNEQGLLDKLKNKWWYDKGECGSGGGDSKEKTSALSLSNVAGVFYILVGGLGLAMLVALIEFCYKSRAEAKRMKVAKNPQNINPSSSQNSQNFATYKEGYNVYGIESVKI
IDO1: Indoleamine 2,3-dioxygenase 1 (IDO1, Homo sapiens, UniProt P14902)
UniProt P14902, sequence (whole entry, looked up): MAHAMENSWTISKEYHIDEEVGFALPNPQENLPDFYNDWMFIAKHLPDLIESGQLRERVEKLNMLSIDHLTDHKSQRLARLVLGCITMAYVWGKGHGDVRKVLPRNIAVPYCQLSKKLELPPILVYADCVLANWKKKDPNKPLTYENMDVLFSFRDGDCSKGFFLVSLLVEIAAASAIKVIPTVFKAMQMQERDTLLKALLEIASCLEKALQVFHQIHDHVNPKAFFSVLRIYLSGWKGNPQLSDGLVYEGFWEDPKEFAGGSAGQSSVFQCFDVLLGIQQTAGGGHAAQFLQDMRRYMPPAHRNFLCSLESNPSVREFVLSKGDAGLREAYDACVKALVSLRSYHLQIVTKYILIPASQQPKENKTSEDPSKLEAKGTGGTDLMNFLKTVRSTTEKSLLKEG
UniProt P54098, sequence (whole entry, looked up): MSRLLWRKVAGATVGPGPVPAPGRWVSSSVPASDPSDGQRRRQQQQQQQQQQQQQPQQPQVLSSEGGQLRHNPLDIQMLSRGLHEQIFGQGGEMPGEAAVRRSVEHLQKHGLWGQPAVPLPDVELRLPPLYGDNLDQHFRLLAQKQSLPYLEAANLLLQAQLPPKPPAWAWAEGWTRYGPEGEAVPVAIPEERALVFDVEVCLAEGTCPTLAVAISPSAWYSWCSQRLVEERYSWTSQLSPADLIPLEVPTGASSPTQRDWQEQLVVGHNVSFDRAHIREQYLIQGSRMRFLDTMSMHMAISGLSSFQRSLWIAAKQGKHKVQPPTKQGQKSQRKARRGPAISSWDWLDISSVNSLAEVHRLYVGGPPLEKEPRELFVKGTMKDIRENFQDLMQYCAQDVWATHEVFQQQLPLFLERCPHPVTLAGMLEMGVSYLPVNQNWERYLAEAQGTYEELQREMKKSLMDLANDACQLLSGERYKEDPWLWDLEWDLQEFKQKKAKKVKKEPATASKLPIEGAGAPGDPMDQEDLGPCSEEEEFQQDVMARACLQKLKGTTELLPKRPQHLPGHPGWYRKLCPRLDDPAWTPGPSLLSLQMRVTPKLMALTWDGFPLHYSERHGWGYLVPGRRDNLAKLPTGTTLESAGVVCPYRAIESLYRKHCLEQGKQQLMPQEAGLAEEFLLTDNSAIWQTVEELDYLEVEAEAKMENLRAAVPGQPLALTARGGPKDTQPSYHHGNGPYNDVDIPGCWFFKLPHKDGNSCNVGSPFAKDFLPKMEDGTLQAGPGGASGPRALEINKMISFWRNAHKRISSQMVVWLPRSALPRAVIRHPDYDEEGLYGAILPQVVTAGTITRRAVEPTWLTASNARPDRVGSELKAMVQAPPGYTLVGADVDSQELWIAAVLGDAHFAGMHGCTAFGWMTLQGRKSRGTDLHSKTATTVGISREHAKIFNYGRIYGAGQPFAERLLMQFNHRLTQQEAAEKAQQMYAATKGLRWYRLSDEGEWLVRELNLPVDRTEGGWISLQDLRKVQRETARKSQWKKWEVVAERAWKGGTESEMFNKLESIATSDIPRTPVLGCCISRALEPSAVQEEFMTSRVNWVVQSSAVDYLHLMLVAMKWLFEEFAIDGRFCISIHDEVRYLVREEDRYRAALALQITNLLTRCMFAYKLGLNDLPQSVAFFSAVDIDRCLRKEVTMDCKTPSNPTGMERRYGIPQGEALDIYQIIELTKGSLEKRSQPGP
UniProt Q13882, sequence (whole entry, looked up): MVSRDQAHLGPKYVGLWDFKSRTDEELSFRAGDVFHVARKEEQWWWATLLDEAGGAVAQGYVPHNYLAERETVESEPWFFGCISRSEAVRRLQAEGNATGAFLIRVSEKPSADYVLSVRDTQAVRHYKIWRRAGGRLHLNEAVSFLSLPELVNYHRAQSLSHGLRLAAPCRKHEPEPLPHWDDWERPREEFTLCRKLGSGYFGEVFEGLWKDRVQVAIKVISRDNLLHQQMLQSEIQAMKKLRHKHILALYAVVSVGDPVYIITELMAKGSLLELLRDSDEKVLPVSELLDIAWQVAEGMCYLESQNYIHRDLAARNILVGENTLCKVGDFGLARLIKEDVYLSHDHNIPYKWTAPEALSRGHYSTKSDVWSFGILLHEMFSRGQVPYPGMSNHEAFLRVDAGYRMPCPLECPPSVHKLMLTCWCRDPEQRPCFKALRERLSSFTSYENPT

O=S(=O)(c1cccc(-c2ccc3ncnc(Nc4ccc(OCc5cccc(F)c5)c(Cl)c4)c3c2)c1)N1CCOCC1 — EC50 (Leishmania major; intracellular amastigote growth, luciferase; RAW264.7 macrophages): > 15000 nM
N[C@@H](COC(c1cccc(F)c1)c1ccccc1OCc1ccccc1)C(=O)O (stereo partly shown) — IC50 (glycine transporter 2 (Xenopus tropicalis, UniProt A0A7D9NK84); glycine uptake, inhibitor; HEK293F; added: 10 nM [3H]glycine): ~0.0521 µM and 0.0521 µM
C#CCCn1nc(C)c2c(Cl)c(C(=O)NCC3CC(Br)=NO3)cnc21 (stereo not shown) — IC50 (Malate dehydrogenase, mitochondrial (MDH2, Sus scrofa, UniProt P00346); enzyme activity, reporter counter-screen; native enzyme): > 63 µM
C[C@H]1[C@@H](O)O[C@@H]2O[C@@]3(C)CC[C@H]4[C@H](C)CC[C@@H]1[C@@]24OO3 — IC50 (Apoptosis regulator Bcl-2 (BCL2, Homo sapiens, UniProt P10415); binding, inhibitor, fluorescence polarization; added: labeled Bid-BH3 peptide): > 200 µM
CCN(CC)CC(=O)Nc1cccc(-n2cc(-c3ccc4ccc(-c5cn(-c6cccc(NC(=O)CN(CC)CC)c6)nn5)cc4c3)nn2)c1 — IC50 (Platelet-derived growth factor receptor alpha (PDGFRA, Homo sapiens, UniProt P16234, V561D); enzyme activity, inhibitor): > 10 µM
O=C1/C(=N\c2ccc(Cl)cc2Br)c2ccccc2N1Cc1cccc(Cl)c1 (mixture of isomers) — IC50 (PIK3CA; enzyme activity, inhibitor, ADP detection): 0.104 µM
Cc1nc(Nc2ccc3c(c2)/C(=C/c2c[nH]c4ccccc24)C(=O)N3)c2ccccc2n1 — IC50 (PIK3CA; enzyme activity, inhibitor, ADP detection): 0.0386 µM
Fc1cncc(-c2ccc3[nH]c4ncnc(N[C@H]5CC[C@H](N6CCOCC6)CC5)c4c3c2)c1 — IC50 (Serine/threonine-protein kinase pim-1 (PIM1, Homo sapiens, UniProt P11309); enzyme activity, inhibitor, radiometric): 0.012 µM
O=C(O)Cc1cc2c(cc1C(=O)c1cccc(Cl)c1)OCO2 — IC50 (Gria2/Glutamate receptor 3; ion current, patch clamp): 4.28 µM
COC1CN([C@H]2CC[C@H]([C@@]3(C)Oc4c(Cl)cc(C(=O)NCc5c(SC)cc(C)[nH]c5=O)c(C)c4O3)CC2)C1 — log2 fold change (RNA-seq, refers to: LRRC1; human, whole blood; dose not given, 24 h; reference: pretreatment baseline): 1.47
O=C(O)Cc1cc2c(cc1C(=O)c1cccc(Br)c1)OCO2 — IC50 (Gria2/Glutamate receptor 3; ion current, patch clamp): 4.58 µM
Cc1oc(C)c(-c2ccc(N(CC(C)C)C3CCCCC3)c(NC(=O)Nc3cccc(B(O)O)c3)c2)c1C(=O)O — IC50 (IDO1; enzyme activity, inhibitor, recombinant enzyme, refers to: kynurenine; 20 min, 2% DMSO, added: L-tryptophan): 41 ± 4 µM
COC(=O)Cc1cc2c(cc1C(=O)c1ccccc1)OCO2 — IC50 (Gria2/Glutamate receptor 3; ion current, antagonist, patch clamp): 6.17 µM
O=C(CCN(Cc1cccnc1)Cc1ccc(Cl)c(O)c1F)NO — IC50 (Meprin A subunit beta (MEP1B, Homo sapiens, UniProt Q16820); enzyme activity, inhibitor): 1.22 µM
Cc1ccc(C(=O)Nc2ccnc(S(N)(=O)=O)c2)c(N2CCCC(F)(F)CC2)n1 — IC50 (Sodium channel protein type 3 subunit alpha (SCN3A, Homo sapiens, UniProt Q9NY46); Nav1.3 sodium current, inhibitor, automated patch clamp): > 33.8 µM
C#CCCn1nc(C)c2c(Cl)c(C(=O)NCC3CC(C)=NO3)cnc21 (stereo not shown) — IC50 (60 kDa heat shock protein, mitochondrial (Homo sapiens, UniProt P10809); ATPase activity, inhibitor): > 250 µM
C[C@@H]1CN(c2cc(=O)n(C)c3ccc(C#N)nc23)[C@H](C)CN1Cc1ccc(S(=O)(=O)n2cnc(C3CC3)n2)cc1 — IC50 (Diacylglycerol kinase zeta (DGKZ, Homo sapiens, UniProt Q13574); inhibitor, ADP-Glo; added: DAG micelles): 4.52 µM
COc1cccc(CNc2nc(NC3CCN(Cc4ccccc4C(=O)O)CC3)c3nc[nH]c3n2)c1 — IC50 (Inositol polyphosphate multikinase (IPMK, Homo sapiens, UniProt Q8NFU5); enzyme activity, inhibitor): 53 µM
CCn1nc(Cl)c2c1-c1cnc(N)c(c1)O[C@H](C)c1cc(F)ccc1-c1nn(C)cc1C2 — IC50 (Protein-tyrosine kinase 6 (PTK6, Homo sapiens, UniProt Q13882); enzyme activity, inhibitor, radiometric): 0.235 µM
CCOc1cc(CN2CCC3(CC2)CN(c2ccc(C(=O)O)cc2)C(=O)N3)c(C2CC2)cc1C — IC50 (Somatostatin receptor type 5 (SSTR5, Homo sapiens, UniProt P35346, Q99A); cAMP level, antagonist, GloSensor; AD293; Q99A mutant, bandwidth 2.63, added: CST17 EC80 and forskolin): 0.0245 µM
[N-]=[N+]=N[C@]1(COP(=O)(O)OP(=O)(O)OP(=O)(O)O)O[C@@H](n2ccc(N)nc2=O)[C@@H](F)[C@@H]1O — IC50 (DNA polymerase subunit gamma-1 (POLG, Homo sapiens, UniProt P54098); cell-free assay, inhibitor): > 1000 µM
Nc1ccc(-c2ccc(F)cc2)cc1NC(=O)C1CCOCC1 — IC50 (Histone deacetylase 7 (HDAC7, Homo sapiens, UniProt Q8WUI4); enzyme activity, inhibitor): > 33.3 µM
CO[C@@H]1[C@@H](OC(=O)c2ccc(C)[nH]2)[C@@H](O)[C@H](Oc2ccc3c(O)c(NC(=O)c4c[nH]c(C(=O)Nc5c(O)c6ccc(O[C@@H]7OC(C)(C)[C@H](OC)[C@@H](OC(=O)c8ccc(C)[nH]8)[C@H]7O)c(C)c6oc5=O)c4C)c(=O)oc3c2C)OC1(C)C — IC50 (Large T antigen (Simian virus 40, UniProt P03070); fork unwinding, inhibitor): ~70 µM
C=C(NC(=O)c1csc(-c2nc3c(cc2O)-c2nc(cs2)C(=O)NC(C(C)O)C(=O)NC(=C(C)OC)c2nc(cs2)C(=O)NC2c4nc(cs4)C(=O)NC(COC(=O)c4c5c6c(cccc6n4O)COC(=O)C(OC4CC(C)(O)C(N(C)C)C(C)O4)C2OC5)c2nc-3cs2)n1)C(N)=O (stereo not shown) — IC50 (Solute carrier organic anion transporter family member 1B3 (SLCO1B3, Homo sapiens, UniProt Q9NPD5); transporter uptake, inhibitor; HEK293; 10 min, pH 7.4): 1.01 µM
Cc1ccc(N=C2CC(=O)c3sc(C)nc3C2=O)cc1 — IC50 (Histone-lysine N-methyltransferase SETD7 (SETD7, Homo sapiens, UniProt Q8WTS6); enzyme activity, inhibitor): > 100 µM
O=C(c1ccc(-c2ccc3ncnc(Nc4ccc(OCc5cccc(F)c5)c(Cl)c4)c3c2)cc1)N1CCOCC1 — EC50 (Leishmania major; intracellular amastigote growth, luciferase; RAW264.7 macrophages): 1400 nM
O=C1CCCC(=O)C1C(=O)c1nc2c(Cl)cccc2n(-c2ccc(O)cc2)c1=O — IC50 (4-hydroxyphenylpyruvate dioxygenase (HPD, Arabidopsis thaliana, UniProt P93836); enzyme activity, inhibitor, absorbance): 0.17 µM
O=C(O)Cc1cc2c(cc1C(=O)c1ccc(Cl)cc1Cl)OCO2 — IC50 (Gria2/Glutamate receptor 3; ion current, patch clamp): 4.02 µM
CC(C)(C)OC(=O)N1CCN(c2ccc3c(O)c(C(=O)NCc4ccc(C#N)nc4)ncc3n2)CC1 — IC50 (Lysine-specific demethylase 4E (KDM4E, Homo sapiens, UniProt B2RXH2); enzyme activity, inhibitor, AlphaScreen): > 10 µM
O=C(CCNC(=O)CNC(=O)CC(c1ccccc1)(c1ccccc1)c1ccccc1)NC[C@@H]1CCCN(C(=O)c2ccc(F)cc2)C1 — IC50 (Muscarinic acetylcholine receptor M1 (CHRM1, Homo sapiens, UniProt P11229); ligand displacement, radioligand; cell membranes): > 30 µM
O=C(O)Cc1cc2c(cc1C(=O)c1ccccc1I)OCO2 — IC50 (Gria2/Glutamate receptor 3; ion current, antagonist, patch clamp): 4.79 µM
COc1cc(C[C@H]2C(=O)OC[C@@H]2Cc2ccc(OC)c(OC)c2)ccc1O — IC50 (Liver carboxylesterase 1 (CES1, Homo sapiens, UniProt P23141); enzyme activity, inhibitor): 6.5 µM
Fc1ccc(Nc2nc(NC3CCCCC3)c3cc(Br)ccc3n2)cc1F — IC50 (Beta-2 adrenergic receptor (ADRB2, Homo sapiens, UniProt P07550, I159A); β-arrestin2 recruitment, antagonist, BRET; HEK293; mutant I159A, added: isoprenaline 1 µM): 0.158 µM
Cc1cc(NC2CCN(C)CC2)ccc1-c1cc2c(N3CCC[C@H](C(=O)NCc4ccc(OC(F)(F)F)cc4)C3)ncnc2[nH]1 — IC50 (Mitogen-activated protein kinase 9 (MAPK9, Homo sapiens, UniProt P45984); enzyme activity, inhibitor, mobility shift): > 8 µM
Cc1nn(-c2cccc(N)c2)c(=O)c2cnc(Nc3ccc(N4CCNCC4)cc3)nc12 — IC50 (Ribosomal protein S6 kinase beta-1 (RPS6KB1, Homo sapiens, UniProt P23443); enzyme activity, inhibitor): > 10 µM
Cc1oc(C)c(-c2ccc(N(CC(C)C)CC(C)C)c(NC(=O)Nc3cccc(B4OC(C)(C)C(C)(C)O4)c3)c2)c1C(=O)O — IC50 (IDO1; enzyme activity, inhibitor, recombinant enzyme, refers to: kynurenine; 20 min, 2% DMSO, added: L-tryptophan): 39 ± 14 µM
Cc1cc(C)c(S(=O)(=O)N(CC(=O)O)c2ccc(Nc3ccnc(N4CCCC4)n3)cc2)c(C)c1 — IC50 (Mitogen-activated protein kinase 3 (MAPK3, Homo sapiens, UniProt P27361); enzyme activity, inhibitor): > 100 µM

For quick reference, copied from above:
Cc1oc(C)c(-c2ccc(N(CC(C)C)CC(C)C)c(NC(=O)Nc3cccc(B4OC(C)(C)C(C)(C)O4)c3)c2)c1C(=O)O — IC50 (IDO1; enzyme activity, inhibitor, recombinant enzyme, refers to: kynurenine; 20 min, 2% DMSO, added: L-tryptophan): 39 ± 14 µM
C#CCCn1nc(C)c2c(Cl)c(C(=O)NCC3CC(Br)=NO3)cnc21 (stereo not shown) — IC50 (Malate dehydrogenase, mitochondrial (MDH2, Sus scrofa, UniProt P00346); enzyme activity, reporter counter-screen; native enzyme): > 63 µM
CCN(CC)CC(=O)Nc1cccc(-n2cc(-c3ccc4ccc(-c5cn(-c6cccc(NC(=O)CN(CC)CC)c6)nn5)cc4c3)nn2)c1 — IC50 (Platelet-derived growth factor receptor alpha (PDGFRA, Homo sapiens, UniProt P16234, V561D); enzyme activity, inhibitor): > 10 µM
